Results of several laboratories.
Numbered parts are unrelated; each lists some results of a single study.

Series 1
Target: Phosphate system positive regulatory protein PHO4, full length, GST-tagged (PHO4, Saccharomyces cerevisiae, UniProt P07270, residues 1-312)
Method: competition protein-binding microarray
Form: double-stranded DNA, one strand shown
Matrix: in vitro
Concentration: 2 µM
Setting: whole 60-bp probe, lowest competitor level
Together with: Cbf1 competitor, 0.05 µM
Direction: higher = stronger binding
Constant ends, left off below: … GTCTTGATTCGCTTGACGCTGCTG
Residues (chain): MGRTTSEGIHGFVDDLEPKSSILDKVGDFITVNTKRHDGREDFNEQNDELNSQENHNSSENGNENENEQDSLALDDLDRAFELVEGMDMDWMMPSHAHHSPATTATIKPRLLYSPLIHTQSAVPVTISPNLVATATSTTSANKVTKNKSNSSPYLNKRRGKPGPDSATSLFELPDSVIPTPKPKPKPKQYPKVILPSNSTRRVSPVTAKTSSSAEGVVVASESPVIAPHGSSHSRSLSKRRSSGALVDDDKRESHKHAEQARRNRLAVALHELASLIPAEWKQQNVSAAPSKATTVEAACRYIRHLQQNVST
Sequence	fluorescence intensity
CCAATCACCGTTCCACGCGTGCAAATCTCTATGACA	9520 a.u.
CAAAGAACATCAAGGCTCGTGTTGGTTCTCTACCAG	9350 a.u.
GATGGAATTACCCATCACGCTCCTCTCTTATGACTA	5810 a.u.
GTGTCAAACAATGTTTACGTTATTCTTTGGTGGGAA	5200 a.u.
CTTCTGTAAATTTGATGAGTGGGTGGACGCGCCCCG	4620 a.u.

Series 2
Target: Histone acetyltransferase KAT6A, both winged helices, GST fusion (KAT6A, Homo sapiens, UniProt Q92794, residues 1-181)
Method: protein binding microarray
Form: double-stranded DNA, one strand shown
Matrix: in vitro
Concentration: not given
Setting: 8-mer, flanks averaged, mean of 2 arrays, mostly near background
Reference: not given
Direction: higher = stronger binding
Target sequence (chain): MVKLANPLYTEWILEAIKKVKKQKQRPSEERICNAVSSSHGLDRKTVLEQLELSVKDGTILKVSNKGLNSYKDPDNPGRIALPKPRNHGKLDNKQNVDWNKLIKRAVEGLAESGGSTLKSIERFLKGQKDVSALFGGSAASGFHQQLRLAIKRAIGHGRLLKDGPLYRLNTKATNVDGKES
Sequence	E-score
AAATTCGT	-0.00675
AGTCAGGA	-0.0714
CGGCGCGA	0.326
GCGATGCA	0.0801
GGCTACTA	0.0641

Series 3
Target: Max-binding protein MNT, bHLH-zipper, MAX partner unstated (MNT, Homo sapiens, UniProt Q99583, residues 220-300)
Method: protein-binding microarray
Form: double-stranded DNA, one strand shown
Matrix: in vitro
Concentration: not given
Setting: k-mer, scored over probes, only values ≥0.25
Direction: higher = stronger binding
Construct (chain): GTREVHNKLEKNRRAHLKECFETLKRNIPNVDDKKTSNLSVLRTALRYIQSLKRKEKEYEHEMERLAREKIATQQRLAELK
Sequence	E-score
ATGAGGGG	0.253
AACACGCT	0.393
AACAGCAT	0.261
CACGGTGG	0.271
TAACGTGA	0.296
ATCCCACG	0.361

Mixed results
Substance	target	assay	test system	conditions	how to read	measurement	value
PhoQ, residues 284 288 289 292 302 303 SSCCRF	PhoP, residues 12 14 15 18 19 AGCRL (Escherichia coli, UniProt P23836)	Sort-seq, refers to: YFP reporter	E. coli	PhoQ-PhoP variant library, together with: 10 µM Mg2+	reference: high Mg2+ state, higher = stronger signaling	fold induction	21

Repeated from above (series 3):
Sequence	E-score
TAACGTGA	0.296
